Measurements pooled from the literature.
Each numbered part is a random draw from the data of one study; scales do not carry over between parts.

Study 1
Target: Prothrombin, mature alpha-thrombin (F2, Homo sapiens, UniProt P00734)
Technique: aptamer microarray, sandwich
Form: DNA with 2'F-ANA
Medium: in vitro
Tested at: 200 nM
Notes: whole 15-mer aptamer, many near background
Together with: Cy3 exosite-II aptamer, 400 nM
Reading: higher = stronger binding
Strand	mean fluorescence intensity [a.u.]
GGTTGGTGTGGTTGG (2'F-ANA at 1 2 4 6 7 8 9 11 14 15)	48.7
GGTTGGTGTGGTTGG (2'F-ANA at 3 4 8 11 14 15)	325
GGTTGGTGTGGTTGG (2'F-ANA at 1 6 7 8 9 10 11 12 14)	53.3

Study 2
Target: Centromere-binding protein 1, full length, His-tagged (CBF1, Saccharomyces cerevisiae, UniProt P17106, residues 1-351)
UniProt P17106, sequence (whole entry, looked up): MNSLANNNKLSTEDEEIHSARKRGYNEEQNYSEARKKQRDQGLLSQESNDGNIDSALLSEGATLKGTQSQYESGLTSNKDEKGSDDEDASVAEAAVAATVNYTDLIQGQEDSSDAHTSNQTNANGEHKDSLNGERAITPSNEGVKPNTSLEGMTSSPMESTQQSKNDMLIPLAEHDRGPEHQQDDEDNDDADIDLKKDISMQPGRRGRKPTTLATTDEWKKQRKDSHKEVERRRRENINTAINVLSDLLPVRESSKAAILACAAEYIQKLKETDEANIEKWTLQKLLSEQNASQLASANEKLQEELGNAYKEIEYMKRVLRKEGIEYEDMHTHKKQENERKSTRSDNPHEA
Technique: competition protein-binding microarray
Form: double-stranded DNA, one strand shown
Medium: in vitro
Tested at: 2 µM
Notes: whole 60-bp probe, lowest competitor level
Together with: Pho4 competitor, 0.05 µM
Reading: higher = stronger binding
Strand	fluorescence intensity [a.u.]
AATTGTCTAAAATTCGTCGTGCTTTCAGAGACTTGTGTCTTGATTCGCTTGACGCTGCTG	75.4
CGTCCTAGTGATTGCTCTGTGGGTGCCATGAGGAAGGTCTTGATTCGCTTGACGCTGCTG	84.6
ACCAGACGGAGTTTGCACGGGAGTGTTGTTGGGCGCGTCTTGATTCGCTTGACGCTGCTG	87.5

Study 3
Target: Histone acetyltransferase KAT6A, both winged helices, GST fusion (KAT6A, Homo sapiens, UniProt Q92794, residues 1-181)
Technique: protein binding microarray
Form: double-stranded DNA, one strand shown
Medium: in vitro
Tested at: not given
Notes: 8-mer, flanks averaged, mean of 2 arrays, mostly near background
Reference: not given
Reading: higher = stronger binding
Target sequence (chain): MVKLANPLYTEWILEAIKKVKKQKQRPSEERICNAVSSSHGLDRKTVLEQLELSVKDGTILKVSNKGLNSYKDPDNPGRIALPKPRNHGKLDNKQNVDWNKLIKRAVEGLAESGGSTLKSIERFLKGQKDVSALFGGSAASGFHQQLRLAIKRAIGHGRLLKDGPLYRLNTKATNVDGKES
Strand	E-score
GCCCCTCA	-0.0991
ACGTTGCA	-0.232
CACAAGCG	0.126
ATTGCTGC	-0.0629
AGAACTAC	-0.0439

Further values, each from its own experiment
Molecule	target	assay	test system	conditions	scale	measurement	result
PhoQ, residues 284 288 289 292 302 303 TTCLQL	PhoP, residues 12 14 15 18 19 SQCLL (Escherichia coli, UniProt P23836)	Sort-seq, item: YFP reporter	E. coli	PhoQ-PhoP variant library, together with: 10 µM Mg2+	reference: high Mg2+ state, higher = stronger signaling	fold induction	4.47
